Assay results of several laboratories.
Numbered parts are unrelated; each lists some results of a single study. Substitutions count along the parent as printed.

Sample 1 — technique: protein-binding microarray; molecule type: double-stranded DNA, one strand shown; medium: in vitro; tested at: 250 nM; notes: 60-bp whole probe; added: salmon DNA 0.4 mg/ml; baseline: random background probes; direction: higher = stronger binding; all sequences stand within: GCCTAGCAC … GTCTTGATTCGCTTGACGCTGCTG
Target: Interferon regulatory factor 7, full length, phosphomimetic (IRF7, Homo sapiens, UniProt Q92985, residues 1-503, S101K/S471D/S472D/S475D/S476D/S477D/S483D/S484D/S487D)
Residues (chain): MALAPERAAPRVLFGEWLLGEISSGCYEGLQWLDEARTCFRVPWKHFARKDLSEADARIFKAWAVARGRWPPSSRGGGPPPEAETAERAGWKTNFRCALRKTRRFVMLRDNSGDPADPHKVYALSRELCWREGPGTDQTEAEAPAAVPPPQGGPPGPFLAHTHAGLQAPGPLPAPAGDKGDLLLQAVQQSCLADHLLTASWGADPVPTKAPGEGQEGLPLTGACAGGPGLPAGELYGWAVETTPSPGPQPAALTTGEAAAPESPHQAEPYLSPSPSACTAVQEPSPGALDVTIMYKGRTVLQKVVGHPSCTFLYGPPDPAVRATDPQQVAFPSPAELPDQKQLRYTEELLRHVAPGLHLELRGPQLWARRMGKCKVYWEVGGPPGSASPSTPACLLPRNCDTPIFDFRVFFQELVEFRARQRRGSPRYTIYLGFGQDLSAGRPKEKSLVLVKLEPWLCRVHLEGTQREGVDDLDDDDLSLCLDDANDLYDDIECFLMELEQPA
| Oligonucleotide | log fluorescence |
| --- | --- |
| GACAGTTCCCTTTTCCTGACGTGCTAG | 2.82 z-score |
| TTAGGTTTCGGACTGTGTTAGTGCTAG | 5.19 z-score |
| TTAGGTATCGGTCTCGCTTAGTGCTAG | 1.55 z-score |
| TTAGATCTCAGTTTTGATTAGTGCTAG | 1.24 z-score |
| CTTTCACCTCTCGGCCTGATGTGCTAG | 1.35 z-score |
| TTAGGTCTCTTTATCCTTTAGTGCTAG | 0.92 z-score |
| TTAGGCATCGGGTTTCGGTTAGTGCTA | 5.56 z-score |
| GTAGGTATCGACTTTCGGTTAGTGCTA | 2.66 z-score |
| GACGGTTTCGGTATAGGGACGTGCTAG | 10.2 z-score |
| TTAGGTATCGTCACTGGGTTAGTGCTA | -0.241 z-score |
| GACGAACTGGGGTTTCGAGGCGTGCTA | 0.773 z-score |
| GACGGACTGGGGACTGGCGACGTGCTA | -0.853 z-score |
| GACGGTTGCGACTATCGGGACGTGCTA | -0.321 z-score |
| TTCTCTTTCACTACTCCATTGTGCTAG | 1.54 z-score |
| CACGGTCTCGGACTGGGGACGTGCTAG | 0.276 z-score |
| CTTAACCTGGGTCTCTGAAGGTGCTAG | -0.0619 z-score |
| CTTTCTTTATGCACTCTTTACGTGCTA | 2 z-score |

Sample 2 — technique: protein binding microarray; molecule type: double-stranded DNA, one strand shown; medium: in vitro; tested at: not given; baseline: not given; direction: higher = stronger binding
Target: Histone acetyltransferase KAT6A, winged helix 2, GST fusion (KAT6A, Homo sapiens, UniProt Q92794, residues 85-181)
Notes: 8-mer, flanks averaged, mean of 2 arrays, mostly near background
Residues (chain): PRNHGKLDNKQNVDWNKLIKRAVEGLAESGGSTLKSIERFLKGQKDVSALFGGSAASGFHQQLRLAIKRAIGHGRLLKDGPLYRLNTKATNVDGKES
| Oligonucleotide | E-score |
| --- | --- |
| GCAACCAC | 0.124 |
| GGATACGA | -0.0735 |
| GCAGGGGA | 0.141 |
| ATCTTCCG | 0.114 |
| GCTAATAC | 0.185 |
| ATTGACCA | -0.252 |
| AGTACTAT | 0.0151 |
| GACTGAAC | 0.0143 |
| CCACAGGG | 0.181 |
| CTAAGACA | -0.053 |
| AGGGAGGG | 0.0929 |
| AACATCCC | -0.0482 |
| AGCGTTAT | -0.234 |
| GCTAACGA | -0.00217 |
| ACTGTCGG | -0.0309 |

Sample 3 — target: CCND3, cyclin fold, Cln2 fusion (human); technique: yeast growth competition, sequencing; medium: yeast; notes: weak parent motif; baseline: not given; direction: higher = stronger binding
Starting sequence: CDKN1A docking peptide (human); SKACRRLFGPVDS; partner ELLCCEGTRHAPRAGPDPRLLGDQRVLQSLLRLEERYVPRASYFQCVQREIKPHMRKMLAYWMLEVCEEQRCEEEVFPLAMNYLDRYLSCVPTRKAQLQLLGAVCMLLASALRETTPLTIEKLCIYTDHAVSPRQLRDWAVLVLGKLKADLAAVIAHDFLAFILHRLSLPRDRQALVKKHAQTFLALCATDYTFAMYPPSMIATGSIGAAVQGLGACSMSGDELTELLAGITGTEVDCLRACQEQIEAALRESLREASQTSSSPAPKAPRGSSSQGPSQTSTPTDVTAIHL
| Variant | normalised enrichment score |
| --- | --- |
| SKACRRLFGPFDS [V11F] | 0.298 |
| SDACRRLFGPVDS [K2D] | 0.354 |
| SRACRRLFGPVDS [K2R] | 0.291 |
| SKACRRLFGPVDA [S13A] | 0.198 |
| SFACRRLFGPVDS [K2F] | 0.308 |
| SKACRRLEGPVDS [F8E] | -0.448 |
| SKHCRRLFGPVDS [A3H] | 0.277 |
| SKACRRLFGKVDS [P10K] | 0.265 |
| SHACRRLFGPVDS [K2H] | 0.348 |
| SKRCRRLFGPVDS [A3R] | -0.225 |
| SKACRPLFGPVDS [R6P] | -0.285 |
| SWACRRLFGPVDS [K2W] | -0.0579 |
| SKACARAFGPVDS [R5A L7A] | 0.166 |
| SKACRRLFGNVDS [P10N] | 0.303 |
| SKAHRRLFGPVDS [C4H] | 0.671 |
| SKACRRLLGPVDS [F8L] | -0.329 |
| SKACRRLFGPDDS [V11D] | 0.72 |
| SKACRRLFGPSDS [V11S] | 0.477 |
| SKACRRLFGYVDS [P10Y] | 0.439 |
| SKACRRWFGPVDS [L7W] | -0.184 |
| SAACRRLFGPVDS [K2A] | 0.199 |
| SKVCRRLFGPVDS [A3V] | 0.159 |

Further values, each from its own experiment
| Molecule | target | test | system | setting | scale | quantity | value |
| --- | --- | --- | --- | --- | --- | --- | --- |
| PhoQ, residues 284 288 289 292 302 303 SIHMAM | PhoP, residues 12 14 15 18 19 GHCSL (Escherichia coli, UniProt P23836) | Sort-seq, refers to: YFP reporter | E. coli | PhoQ-PhoP variant library, added: 10 µM Mg2+ | baseline: high Mg2+ state, higher = stronger signaling | fold induction | 12.1 |
